Published values gathered from unrelated publications.
± gives the spread as reported.

With COc1cccc2c1C(=O)c1c(O)c3c(c(O)c1C2=O)C[C@@](O)(C(=O)CO)C[C@@H]3O[C@H]1C[C@H](N)[C@H](O)[C@H](C)O1 the viability was 28.6% (C2C12 cells; MTT; concentration not given, 72 h; relative to: control).
C=C(C[C@H](N)C(=O)O)C(=O)NCc1ccccc1 gave an EC50 of greater than 316 µM (MCF7; necrosis; 24 h).
With O=C(O[C@@H]1Cc2c(O)cc(O)cc2O[C@@H]1c1cc(O)c(O)c(O)c1)c1cc(O)c(O)c(O)c1 the cellular accumulation was 1.35 ± 0.16% (Caco-2 TC7; PBS; concentration not given, 3 h, pH 5, 37 °C; relative to: dose).
With C=C(C[C@H](N)C(=O)O)C(N)=O the EC50 was 151 µM (MCF7; necrosis; 24 h).
O=c1[nH]cc(F)c(=O)[nH]1 gave an EC100 of 2.72 ± 0.405 µM (WI-38 lung fibroblasts; cytotoxicity, MTT; medium with 10% FBS; 72 h, dose at 100% viability).
With CC(=NN=c1sc(-c2cccs2)nn1-c1ccc([N+](=O)[O-])cc1)c1ccc2ccccc2c1 the selectivity index was 124 (Vero and HepG2; cytotoxicity; relative to: CC50 Vero over IC50 HepG2).
Cc1ccc2c(=O)n(Cc3cn(Cc4ccc(C(=O)NO)cc4)nn3)cnc2c1 gave an IC50 of 23.6 µM (MRC5; cell growth or viability, MTT; 48 h).
O=C(c1nc2ccccc2[nH]1)[C@H]1[C@H](c2ccc(Br)cc2)[C@H]2CCCN2[C@@]12c1ccccc1-c1nc3ccccc3nc12 gave an EC100 of 0.071 ± 0.001 µM (WI-38 lung fibroblasts; cytotoxicity, MTT; medium with 10% FBS; 72 h, dose at 100% viability).
The selectivity index of O=[N+]([O-])c1ccc(-n2nc(-c3cccs3)sc2=NN=Cc2ccccc2)cc1 is reported as 88.5 (Vero and A549; cytotoxicity; relative to: CC50 Vero over IC50 A549).
CC/C(=C(\c1ccccc1)c1ccc(OCCN(C)C)cc1)c1ccccc1 gave an EC50 of 8.8 µM (HeLa MMTV-βLa; cytotoxicity; 72 h).
Under “compound share in basal compartment”, `salmon calcitonin` is recorded as 0% (Calu-3 monolayer, air-liquid interface; 1 mg/mL apical, 3 h, pH 7.4, 37 °C, with or without HTCC).
The selectivity index of O=[N+]([O-])c1ccc(-n2nc(-c3cccs3)sc2=NN=C2CCCCCC2)cc1 is reported as 105 (Vero and HepG2; cytotoxicity; relative to: CC50 Vero over IC50 HepG2).
O=C(NO)c1ccc(Cn2cc(Cn3cnc4cc(F)ccc4c3=O)nn2)cc1 gave an IC50 of 12.9 µM (MRC5; cell growth or viability, MTT; 48 h).
O=C(NO)c1ccc(Nc2nc(Nc3ccc(C(=O)NO)cc3)nc(Nc3ccc(C(=O)NO)cc3)n2)cc1: “maximum non-toxic concentration” 5.8 ± 0.277 nM (WI-38 cells; cell viability, MTT; 72 h).
With C=C(C[C@H](N)C(=O)O)C(=O)N1CCCCC1 the EC50 was 195 µM (MCF7; necrosis; 24 h).
O=C1c2cccc3ccc4ccc5cccc1c5c4c23 has an inhibition of greater than 90% (HaCaT; EROD activity; 10 µM, up to 24 h, added: 5 nM TCDD).
The toxic concentration of Cn1c(C(=O)NCCCc2c[nH]c(N)n2)cc(Br)c1Br is reported as 492 µM (HaCaT; MTT; overnight, 50% toxicity, 10% FBS).
